# Earlier results that unrelated publications cite.
# Lines come from different studies, so protocols differ.
SMILES,system,setting,Cmax
CC(C)(C)[C@@H]1NC(=O)O[C@@H]2CCC[C@H]2OC/C=C/C(F)(F)c2nc3ccccc3nc2O[C@@H]2C[C@@H](C(=O)N[C@]3(C(=O)NS(=O)(=O)C4(C)CC4)C[C@H]3C(F)F)N(C2)C1=O,"human patients, plasma","dose not given, single or steady-state dosing, added: with co-medication",700 nM
CN1C(=O)CC(=O)N(c2ccccc2)c2cc(Cl)ccc21,"human, plasma total",40 mg,4570 nM
CCCC[C@H](NC(=O)[C@@H]1[C@@H]2[C@H](CN1C(=O)[C@@H](NC(=O)NC1(CS(=O)(=O)C(C)(C)C)CCCCC1)C(C)(C)C)C2(C)C)C(=O)C(=O)NC1CC1,"human patients, plasma","dose not given, single or steady-state dosing, added: with co-medication",1900 nM
CCC(CC)COC(=O)[C@H](C)N[P@](=O)(OC[C@H]1O[C@@](C#N)(c2ccc3c(N)ncnn23)[C@H](O)[C@@H]1O)Oc1ccccc1,"human, plasma","intravenous infusion, 150 mg over 2 h, literature value",230 nM
COC(=O)[C@H](c1ccccc1)[C@H]1CCCCN1,"human, CES1 wild type, plasma","oral, 10 mg methylphenidate, single dose, median",5 ng/mL
CN1CCN(C2=Nc3ccccc3Oc3ccc(Cl)cc32)CC1,"human, plasma","concentration not given, median of reported values",143 nM
COc1ccccc1Oc1c(NS(=O)(=O)c2ccc(C(C)(C)C)cc2)nc(-c2ncccn2)nc1OCCO,human,"125 mg, 7 days",2800 nM
C=C[C@@H]1C[C@]1(NC(=O)[C@@H]1C[C@@H]2CN1C(=O)[C@H](C(C)(C)C)NC(=O)O[C@@H]1C[C@H]1CCCCCc1nc3ccc(OC)cc3nc1O2)C(=O)NS(=O)(=O)C1CC1,"healthy human subjects, plasma","200 mg, steady state",710 nM
C=CC(=O)N1CCC([C@@H]2CCNc3c(C(N)=O)c(-c4ccc(Oc5ccccc5)cc4)nn32)CC1,human,"concentration not given, established safety range",≤ 1340 ng/mL
COC(=O)C(c1ccccc1)C1CCCCN1 (stereo not drawn),"human, plasma","concentration not given, median of reported values",62 nM
COc1cnc(-n2cnc(C)n2)c2[nH]cc(C(=O)C(=O)N3CCN(C(=O)c4ccccc4)CC3)c12,"human, plasma",concentration not given,4000 nM
C[C@]12C=CC(=O)C=C1CC[C@@H]1[C@@H]2C(=O)C[C@@]2(C)[C@H]1CC[C@]2(O)C(=O)CO,"human, plasma","concentration not given, range of reported values",42 to 3700 nM
C=C[C@@H]1C[C@]1(NC(=O)[C@@H]1C[C@@H]2CN1C(=O)[C@H](C(C)(C)C)NC(=O)O[C@@H]1C[C@H]1CCCCCc1nc3ccc(OC)cc3nc1O2)C(=O)NS(=O)(=O)C1CC1,"human patients, plasma","dose not given, single or steady-state dosing, added: with co-medication",200 nM
O=c1n(CCCN2CCN(c3cccc(Cl)c3)CC2)nc2ccccn12,"human, plasma","concentration not given, median of reported values",2220 nM
N.N.[Cl][Pt][Cl],human patients,dose not given,≤ 30000 nM
O=c1[nH]c2ccccc2n1CCCN1CCC(n2c(=O)[nH]c3cc(Cl)ccc32)CC1,"human, plasma","concentration not given, median of reported values",41 nM
CC(C)(C)NCc1ccc(Nc2ccnc3cc(Cl)ccc23)cc1O,human,2000 mg once daily,1500 nM
CCC[C@H](NC(=O)[C@@H]1[C@H]2CCC[C@H]2CN1C(=O)[C@@H](NC(=O)[C@@H](NC(=O)c1cnccn1)C1CCCCC1)C(C)(C)C)C(=O)C(=O)NC1CC1,"human patients, plasma","dose not given, single or steady-state dosing, added: with co-medication",5200 nM
CNC(=C[N+](=O)[O-])NCCSCc1ccc(CN(C)C)o1,"human, plasma","concentration not given, median of reported values",2120 nM
CC[C@@H]1C[C@]1(NC(=O)[C@@H]1C[C@@H]2CN1C(=O)[C@H](C(C)(C)C)NC(=O)OCC(C)(C)CCCCc1cccc3c1CN(C3)C(=O)O2)C(=O)NS(=O)(=O)C1CC1,"human patients, plasma","dose not given, single or steady-state dosing, added: with co-medication",6500 nM
COc1cc2c(c(OC)c1OC)-c1ccc(OC)c(=O)cc1[C@@H](NC(C)=O)CC2,"human, plasma",concentration not given,17 nM
Cc1nnc(C(=O)NC(C)(C)c2nc(C(=O)NCc3ccc(F)cc3)c(O)c(=O)n2C)o1,"human, plasma total",400 mg,142 nM
CC1(C)CCC(CN2CCN(c3ccc(C(=O)NS(=O)(=O)c4ccc(NCC5CCOCC5)c([N+](=O)[O-])c4)c(Oc4cnc5[nH]ccc5c4)c3)CC2)=C(c2ccc(Cl)cc2)C1,human,"oral, 50 mg single dose",200 ng/mL
O=C(O)CSc1nnc(Br)n1-c1ccc(C2CC2)c2ccccc12,"human, plasma total",600 mg,45000 nM
COc1ccc(C(=O)Nc2ccccc2CCC2CCCCN2C)cc1 (stereo not drawn),"human, plasma","concentration not given, median of reported values",1760 nM
Cc1ncc2n1-c1ccc(Cl)cc1C(c1ccccc1F)=NC2,human,"oral, 7.5 mg",22 ng/mL
O=C(O)c1ccc2nc(-c3cc(Cl)cc(Cl)c3)oc2c1,"human, plasma total",20 mg,9120 nM
CC(C)/N=c1\cc2n(-c3ccc(Cl)cc3)c3ccccc3nc-2cc1Nc1ccc(Cl)cc1,human,200 mg once daily,861 nM
Cc1cc(/C=C/C#N)cc(C)c1Nc1ccnc(Nc2ccc(C#N)cc2)n1,"human, plasma total",25 mg,500 nM
O=C(O)[C@@H](c1ccccc1)[C@@H]1CCCCN1,"human, by CES1 genotype, plasma","oral, 10 mg methylphenidate, single dose, median",114 ng/mL
COc1ccc2c(O[C@@H]3C[C@H]4C(=O)N[C@]5(C(=O)NS(=O)(=O)C6CC6)C[C@H]5/C=C\CCCCN(C)C(=O)[C@@H]4C3)cc(-c3nc(C(C)C)cs3)nc2c1C,"human patients, plasma","dose not given, single or steady-state dosing, added: with co-medication",14500 nM
CCc1nn(CCO)c(CC)c1Oc1cc(C#N)cc(C#N)c1,"human, plasma total",250 mg,1850 nM
CC(C)(C)NC(=O)[C@@H]1C[C@@H]2CCCC[C@@H]2CN1C[C@@H](O)[C@H](Cc1ccccc1)NC(=O)[C@H](CC(N)=O)NC(=O)c1ccc2ccccc2n1,"human, plasma","concentration not given, median of reported values",1790 nM

# For quick reference, copied from above:
SMILES,system,setting,Cmax
CCCC[C@H](NC(=O)[C@@H]1[C@@H]2[C@H](CN1C(=O)[C@@H](NC(=O)NC1(CS(=O)(=O)C(C)(C)C)CCCCC1)C(C)(C)C)C2(C)C)C(=O)C(=O)NC1CC1,"human patients, plasma","dose not given, single or steady-state dosing, added: with co-medication",1900 nM
CC[C@@H]1C[C@]1(NC(=O)[C@@H]1C[C@@H]2CN1C(=O)[C@H](C(C)(C)C)NC(=O)OCC(C)(C)CCCCc1cccc3c1CN(C3)C(=O)O2)C(=O)NS(=O)(=O)C1CC1,"human patients, plasma","dose not given, single or steady-state dosing, added: with co-medication",6500 nM
